Experimental data pooled from the literature.
Each line is one published result; not all experiments were run side by side. Numbers after ± are the reported error.
Cell line: HT-29

COc1cc(CNC(=O)C[C@H](C)CCC=C(C)C)ccc1OCc1cn(-c2cccc(Cl)c2)nn1  growth percent (SRB; 10 µM, 48 h): 97.3%
CC12CCCC(n3cc(C(=O)N4CCCC(N)C4)nn3)(C1)C1CC(C)(C)C1CC2 (stereo not shown)  apoptotic cells (annexin V/PI flow cytometry; 5 µM, 48 h): 26.7%
O=C(Cc1cccc(C(F)(F)F)c1)Nc1cc(Oc2cc(Cl)c3nc(NC(=O)C4CC4)sc3c2)ccc1F  EC50 (necroptosis, CellTiter-Glo; together with: TNF, SMAC mimetic and zVAD (TSZ)): > 10000 nM
C=C1CC(OC(=O)C(C)(O)CCl)C2C(=C)C(=O)OC2C2C1CC(O)C2(O)CCl (stereo not shown)  cells in G1 phase (PI flow cytometry; IC50, 48 h): 59.4 ± 2.3%
O=C(Cc1cccc(C(F)(F)F)c1)Nc1cc(Oc2cc3sc(NC(=O)C4CC4)nc3cc2Cl)ccc1F  EC50 (necroptosis, CellTiter-Glo; together with: TNF, SMAC mimetic and zVAD (TSZ)): 44 ± 7 nM
CC/C=C\C/C=C\C/C=C\C/C=C\C/C=C\C/C=C\CCC(=O)Nc1ccn(C2OC(CO)C(O)C2(F)F)c(=O)n1 (stereo not shown)  TGI (NCI60 screen): 17600 nM
O=C(Cc1cccc(C(F)(F)F)c1)Nc1cc(Oc2ccc3nc(NC(=O)C4CC4)sc3c2C(=O)O)ccc1F  EC50 (necroptosis, CellTiter-Glo; together with: TNF, SMAC mimetic and zVAD (TSZ)): > 10000 nM
O=C(/C=C/c1ccc(O)c2oc(-c3ccc(O)c(O)c3)cc12)O[C@H](Cc1ccc(O)c(O)c1)C(=O)O  maximal DMR response (agonist, dynamic mass redistribution): > 1500 pm
CC[C@H](C)[C@@H]1NC(=O)[C@@H](CCC(N)=O)NC(=O)CNC(=O)[C@H](Cc2ccc(O)cc2)N=C[C@H](CC(C)C)NC(=O)[C@H](C(C)C)NC(=O)[C@H](CO)NC1=O  ED50 (cytotoxicity; 3 days): > 20 µg/mL
O=C(Cc1cccc(C(F)(F)F)c1)Nc1cc(Oc2c(Br)cc3nc(NC(=O)C4CC4)sc3c2Br)ccc1F  EC50 (necroptosis, CellTiter-Glo; together with: TNF, SMAC mimetic and zVAD (TSZ)): 380 ± 10 nM
CC(=O)OC[C@H]1O[C@@H](Sc2sc(C(=O)c3ccc(C)cc3)c(N)c2-c2nc3ccccc3s2)[C@H](OC(C)=O)[C@@H](OC(C)=O)[C@H]1OC(C)=O  growth (SRB; 10 µM, 48 h; relative to: untreated): 94.2%
COc1cc(CNC(=O)C[C@H](C)CCC=C(C)C)ccc1OCc1cn(-c2ccc([N+](=O)[O-])cc2)nn1  growth percent (SRB; 10 µM, 48 h): 108%
CC(O)c1c(Oc2ccc(F)c(NC(=O)Cc3cccc(C(F)(F)F)c3)c2)ccc2nc(NC(=O)C3CC3)sc12 (stereo not shown)  EC50 (necroptosis, CellTiter-Glo; together with: TNF, SMAC mimetic and zVAD (TSZ)): 45 ± 9 nM
COc1cc(CNC(=O)C[C@H](C)CCC=C(C)C)ccc1OCc1cn(-c2ccccc2[N+](=O)[O-])nn1  growth percent (SRB; 10 µM, 48 h): 22.6%
O=C(Cc1cccc(C(F)(F)F)c1)Nc1cc(Oc2cc(C(=O)NC3CC3)c3nc(NC(=O)C4CC4)sc3c2)ccc1F  EC50 (necroptosis, CellTiter-Glo; together with: TNF, SMAC mimetic and zVAD (TSZ)): > 10000 nM
COc1ccc(C2=Nn3c(NN=C4C(=O)N(C)c5ccc(Br)cc54)nnc3SC2)cc1  inhibition (cell growth or viability, SRB; 10 µM): 15%
NCCC(=O)N[C@@H](Cc1c[nH]cn1)C(=O)N[C@@H](Cc1c[nH]cn1)C(=O)NCCC(=O)O  viability (MTT; 10 µg/mL, 6 h): 35%
Cc1nn(-c2ccc(S(=O)(=O)N[C@@H](CO)CC(C)C)cc2)c2nn3nnnc3nc12  apoptotic cells (PI/Hoechst staining; 0.5 µM, 24 h): 21.5 ± 2.12%
CSc1ccc(/C=C2/C(C)=C(CC(=O)NCCN(C)C)c3cc(F)ccc32)cc1  CC50 (cell growth or viability): 650 nM
COc1ccc(NC(=O)O[C@H]2[C@H](C)O[C@@H](O[C@H]3[C@H](N(C)C)[C@@H](O)[C@H](O[C@H]4[C@@H](CC=O)C[C@@H](C)[C@@H](O[C@H]5CC[C@H](N(C)C)[C@@H](C)O5)/C=C/C=C/C[C@@H](C)OC(=O)C[C@@H](O)[C@@H]4OC)O[C@@H]3C)C[C@@]2(C)O)cc1  IC50 (cell growth or viability, CCK-8; 72 h): > 50000 nM
COc1cc2ncc3c(c2cc1-c1cnn(C)c1)n(-c1ccc(C#N)cc1F)c(=O)n3C  CHK1 phosphorylation (ATR-CHK1 signaling; concentration not given, together with: hydroxyurea): no effect
COc1cc(Oc2ccc(F)c(NC(=O)Cc3cccc(C(F)(F)F)c3)c2)cc2sc(NC(=O)C3CC3)nc12  EC50 (necroptosis, CellTiter-Glo; together with: TNF, SMAC mimetic and zVAD (TSZ)): > 10000 nM
N[C@@H](Cc1c[nH]cn1)C(=O)NCCC(=O)NCCC(=O)N[C@@H](Cc1c[nH]cn1)C(=O)O  viability (MTT; 10 µg/mL, 6 h): 26.5%
COC(=O)c1c(Oc2ccc(F)c(NC(=O)Cc3cccc(C(F)(F)F)c3)c2)ccc2nc(NC(=O)C3CC3)sc12  EC50 (necroptosis, CellTiter-Glo; together with: TNF, SMAC mimetic and zVAD (TSZ)): 23 ± 6 nM
O=C(CCNC(=O)[C@H](Cc1c[nH]cn1)NC(=O)[C@@H]1CCCN1)NCCC(=O)N[C@@H](Cc1c[nH]cn1)C(=O)O  viability (MTT; 10 µg/mL, 6 h): 26.5%
CC(Cc1ccc(Cl)cc1)=C(c1ccc(Cl)cc1)c1ccc(OCCN(C)C)cc1  GI50 (cell growth or viability, SRB): 1360 nM
COc1cc(CNC(=O)C[C@H](C)CCC=C(C)C)ccc1OCc1cn(-c2ccc(Cl)c(Cl)c2)nn1  growth percent (SRB; 10 µM, 48 h): 78.3%
O=C1CCNC(=O)[C@@H]2CCCN2C(=O)CCNC(=O)[C@H](Cc2c[nH]cn2)NC(=O)[C@H](Cc2c[nH]cn2)N1  viability (LDH release; 10 µg/mL, 6 h, 1% FBS): 34.3%

Excerpt of the above:
O=C(/C=C/c1ccc(O)c2oc(-c3ccc(O)c(O)c3)cc12)O[C@H](Cc1ccc(O)c(O)c1)C(=O)O  maximal DMR response (agonist, dynamic mass redistribution): > 1500 pm
CC[C@H](C)[C@@H]1NC(=O)[C@@H](CCC(N)=O)NC(=O)CNC(=O)[C@H](Cc2ccc(O)cc2)N=C[C@H](CC(C)C)NC(=O)[C@H](C(C)C)NC(=O)[C@H](CO)NC1=O  ED50 (cytotoxicity; 3 days): > 20 µg/mL
O=C(Cc1cccc(C(F)(F)F)c1)Nc1cc(Oc2c(Br)cc3nc(NC(=O)C4CC4)sc3c2Br)ccc1F  EC50 (necroptosis, CellTiter-Glo; together with: TNF, SMAC mimetic and zVAD (TSZ)): 380 ± 10 nM
CC(=O)OC[C@H]1O[C@@H](Sc2sc(C(=O)c3ccc(C)cc3)c(N)c2-c2nc3ccccc3s2)[C@H](OC(C)=O)[C@@H](OC(C)=O)[C@H]1OC(C)=O  growth (SRB; 10 µM, 48 h; relative to: untreated): 94.2%
